Measured values from different studies.
Each line is one published result; not all experiments were run side by side. Values joined by “and” are separate records of one study, mostly repeats; a detail may differ.
Cell line: NCI-H522

With `CCCCN1CCN(c2ccc3[nH]c(-c4ccc5[nH]c(-c6cc(OC)c(OC)c(OC)c6)nc5c4)nc3c2)CC1` the growth percent was 52.8% (SRB; 10 µM, 48 h).
The growth percentage of `Cc1cc(=O)[nH]c(=O)n1Cc1cn(-c2cc3ccccc3oc2=O)nn1` is reported as 91.9% (NCI60 single-dose screen; 10 µM).
`O=C(Nc1nnc2n3c(Cc4ccccc4)n[nH]c3nc(-c3ccc(Cl)cc3)c1-2)c1ccccc1` has a cell growth of 106% (SRB; 10 µM, NCI60 single-dose screen; relative to: untreated).
The GI50 of `Cn1cncc1C1=CN(c2ncnc3[nH]cnc23)CCS1` is reported as 15100 nM (lung cancer).
For `Cc1cc(-c2ccccc2)n(-c2nc(-c3ccc(Cl)cc3)c3c(NC(=O)c4ccccc4)nnc-3[nH]2)n1`, the cell growth was 88.7% (SRB; 10 µM, NCI60 single-dose screen; relative to: untreated).
`S=C([S][Au-][P+](CCCCCC[P+]([Au-][S]C(=S)n1cccn1)(c1ccccc1)c1ccccc1)(c1ccccc1)c1ccccc1)n1cccn1` gave a log10 TGI of -5.2 (cell growth, NCI-60 screen; non-small cell lung cancer).
With `CCOc1ccc(-c2nc3cc(-c4nc5cc(N6CCN(C)CC6)ccc5[nH]4)ccc3[nH]2)cc1OCC` the growth percent was -18.2% (SRB; 10 µM, 48 h).
With `NNc1nc(-c2ccc(Cl)cc2)c2c(NC(=O)c3ccccc3)nnc-2[nH]1` the cell growth was 95.3% (SRB; 10 µM, NCI60 single-dose screen; relative to: untreated).
For `CC(=O)O[C@H]1C(=O)[C@@]2(C)[C@H]([C@H](OC(=O)c3ccccc3)[C@]3(O)C[C@H](OC(=O)[C@H](O)[C@@H](NC(=O)c4ccccc4)c4ccccc4)C(C)=C1C3(C)C)[C@]1(OC(C)=O)CO[C@@H]1C[C@@H]2O`, the TGI was 80 nM (sulforhodamine B; NSCLC cancer; NCI60 screen).
With `C#C[C@@]1(O)[C@@H](CO)O[C@@H](n2ccc3c(N)ncnc32)[C@@H]1O` the TGI was 3820 nM (SRB; NCI-60 screen).
`O=c1ccn(Cc2cn(-c3c4ccccc4nc4ccccc34)nn2)c(=O)[nH]1` gave a growth percentage of -57.4% (NCI60 single-dose screen; 10 µM).
The TGI of `COCCOCCOCc1n(Cc2ccc3ccccc3n2)c2ccccc2[n+]1Cc1ccc2ccccc2c1.[Br-]` is reported as 936 nM (NCI60 five-dose screen).
With `CCCN1CCN(c2ccc3[nH]c(-c4ccc5[nH]c(-c6ccc(C(F)(F)F)cc6)nc5c4)nc3c2)CC1` the growth percent was -43.4% (SRB; 10 µM, 48 h).
`CCCc1n(Cc2ccc3ccccc3c2)c2ccccc2[n+]1Cc1ccc2ccccc2c1.[Br-]` has a TGI of 1050 nM (NCI60 five-dose screen).
With `CSc1nc(-c2ccc(Cl)cc2)c2c(NC(=O)c3ccccc3)nnc-2[nH]1` the cell growth was 92.6% (SRB; 10 µM, NCI60 single-dose screen; relative to: untreated).
With `O=c1ccn(Cc2cn(-c3cc4ccccc4oc3=O)nn2)c(=O)[nH]1` the growth percentage was 95.9% (NCI60 single-dose screen; 10 µM).
The growth percent of `CCCCN1CCN(c2ccc3[nH]c(-c4ccc5[nH]c(-c6ccc(OCC)cc6)nc5c4)nc3c2)CC1` is reported as 68.8% (SRB; 10 µM, 48 h).
`CCOC(=O)CSc1nc(-c2ccc(Cl)cc2)c2c(NC(=O)c3ccccc3)nnc-2[nH]1` gave a cell growth of 73.3% (SRB; 10 µM, NCI60 single-dose screen; relative to: untreated).
`CCCN1CCN(c2ccc3nc(-c4ccc5nc(-c6cc(OC)ccc6OC)[nH]c5c4)[nH]c3c2)CC1` gave a growth percent of 113% (SRB; 10 µM, 48 h).
`C#C[C@@]1(O)[C@@H](CO)O[C@@H](n2cc(I)c3c(N)ncnc32)[C@@H]1O` has a TGI of 516 nM and 698 nM (SRB; NCI-60 screen).
The TGI of `CCCCc1n(Cc2ccc3ccccc3c2)c2ccccc2[n+]1Cc1ccc2ccccc2c1.[Br-]` is reported as 1350 nM (NCI60 five-dose screen).
The cell growth of `O=C(Nc1nnc2n3c(nc(-c4ccc(Cl)cc4)c1-2)SCC3=O)c1ccccc1` is reported as 92% (SRB; 10 µM, NCI60 single-dose screen; relative to: untreated).
For `CCCN1CCN(c2ccc3[nH]c(-c4ccc5[nH]c(-c6cc(OC)c(OC)c(OC)c6)nc5c4)nc3c2)CC1`, the growth percent was 41.1% (SRB; 10 µM, 48 h).
The growth percentage of `O=C1NC(c2ccccc2)(c2ccccc2)C(=O)N1Cc1cn(-c2c3ccccc3nc3ccccc23)nn1` is reported as 15.9% (NCI60 single-dose screen; 10 µM).

A few entries again:
The TGI of `CCCCc1n(Cc2ccc3ccccc3c2)c2ccccc2[n+]1Cc1ccc2ccccc2c1.[Br-]` is reported as 1350 nM (NCI60 five-dose screen).
With `CCOc1ccc(-c2nc3cc(-c4nc5cc(N6CCN(C)CC6)ccc5[nH]4)ccc3[nH]2)cc1OCC` the growth percent was -18.2% (SRB; 10 µM, 48 h).
For `CCCN1CCN(c2ccc3[nH]c(-c4ccc5[nH]c(-c6cc(OC)c(OC)c(OC)c6)nc5c4)nc3c2)CC1`, the growth percent was 41.1% (SRB; 10 µM, 48 h).
With `CSc1nc(-c2ccc(Cl)cc2)c2c(NC(=O)c3ccccc3)nnc-2[nH]1` the cell growth was 92.6% (SRB; 10 µM, NCI60 single-dose screen; relative to: untreated).
